Results gathered from unrelated publications.
Every numbered part comes from another study and shows a few of its results, in no order. Positions count from the first letter of the parent shown.

Study 1 — target: JUND, bZIP domain (human); technique: DHFR protein complementation; sample: yeast; baseline: wild-type JUN-FOS pair; direction: higher = stronger binding
Setting: single substitutions, most at no-binding floor
Starting sequence: JUN, bZIP domain (human); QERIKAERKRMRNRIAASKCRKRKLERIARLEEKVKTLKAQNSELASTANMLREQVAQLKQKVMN
`V35P` has a binding fitness of -1.44 natural log.
The binding fitness of `R53F` is reported as -1.29 natural log.
`L38G` gave a binding fitness of -1.42 natural log.
The binding fitness of `T37P` is reported as -1.46 natural log.
With `E33P` the binding fitness was -1.48 natural log.
`L38K` has a binding fitness of -1.4 natural log.
For `Q41W`, the binding fitness was -1.31 natural log.
`L52W` gave a binding fitness of -1.33 natural log.
`L52M` has a binding fitness of -1.29 natural log.
`L31E` gave a binding fitness of -1.41 natural log.
The binding fitness of `L45I` is reported as -1.28 natural log.
`V35T` gave a binding fitness of -1.37 natural log.
`L52C` has a binding fitness of -1.45 natural log.
With `V56S` the binding fitness was -1.42 natural log.
The binding fitness of `V56Q` is reported as -1.41 natural log.

Study 2 — target: CCND1, cyclin fold, Cln2 fusion (human); technique: yeast growth competition, sequencing; sample: yeast; setting: strong parent motif; baseline: not given; direction: higher = stronger binding
Starting sequence: E2F1 docking peptide (human); PPVKRRLDFETDH; partner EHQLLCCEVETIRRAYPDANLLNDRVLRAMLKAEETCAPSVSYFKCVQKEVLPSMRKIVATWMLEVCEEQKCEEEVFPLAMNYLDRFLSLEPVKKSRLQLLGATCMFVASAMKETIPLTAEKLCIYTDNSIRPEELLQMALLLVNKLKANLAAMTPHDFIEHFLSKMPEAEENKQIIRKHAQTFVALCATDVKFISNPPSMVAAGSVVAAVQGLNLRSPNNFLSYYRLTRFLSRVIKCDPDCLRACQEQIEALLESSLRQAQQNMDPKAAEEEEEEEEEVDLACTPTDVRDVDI
For `E10Q`, “normalised enrichment score” read 1.99.
`D12F` — result for “normalised enrichment score”: 2.87.
Under “normalised enrichment score”, `D8Q` is recorded as 1.86.
Under “normalised enrichment score”, `R6G` is recorded as 0.383.
Under “normalised enrichment score”, `R5M` is recorded as 0.591.
For `T11W`, “normalised enrichment score” read 2.8.
For `D12M`, “normalised enrichment score” read 2.93.
For `K4W`, “normalised enrichment score” read 1.2.
For `R5S`, “normalised enrichment score” read -0.152.
Under “normalised enrichment score”, `T11F` is recorded as 3.31.
For `F9E`, “normalised enrichment score” read 0.369.
For `F9P`, “normalised enrichment score” read -0.361.
`P2M`: “normalised enrichment score” 1.82.
Under “normalised enrichment score”, `P2Y` is recorded as 1.25.
Under “normalised enrichment score”, `R6E` is recorded as 1.32.
`D8A` — result for “normalised enrichment score”: 1.57.
`T11C` — result for “normalised enrichment score”: 3.13.
Under “normalised enrichment score”, `E10V` is recorded as 1.44.
Under “normalised enrichment score”, `R5E` is recorded as 0.107.
`F9M` — result for “normalised enrichment score”: 0.502.
For `R5T`, “normalised enrichment score” read 0.204.
For `V3C`, “normalised enrichment score” read 2.3.
`K4E` — result for “normalised enrichment score”: 1.33.
`D8I`: “normalised enrichment score” 2.61.
`T11I` — result for “normalised enrichment score”: 2.74.

Study 3 — technique: DHFR PCA, deep sequencing; sample: yeast; added: (+)-ABA 0.39 µM; baseline: wild-type fitted maximum; direction: higher = stronger binding
Target: ABI1, truncated, D143A, DHFR fusion (Arabidopsis thaliana)
Setting: methotrexate growth selection, single substitutions
Starting sequence: PYL1, truncated, DHFR fusion (Arabidopsis thaliana); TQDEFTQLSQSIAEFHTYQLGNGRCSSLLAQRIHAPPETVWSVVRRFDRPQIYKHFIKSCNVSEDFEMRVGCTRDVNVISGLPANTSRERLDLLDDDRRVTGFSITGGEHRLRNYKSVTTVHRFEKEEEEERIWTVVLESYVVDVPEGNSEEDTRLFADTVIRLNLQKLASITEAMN; partner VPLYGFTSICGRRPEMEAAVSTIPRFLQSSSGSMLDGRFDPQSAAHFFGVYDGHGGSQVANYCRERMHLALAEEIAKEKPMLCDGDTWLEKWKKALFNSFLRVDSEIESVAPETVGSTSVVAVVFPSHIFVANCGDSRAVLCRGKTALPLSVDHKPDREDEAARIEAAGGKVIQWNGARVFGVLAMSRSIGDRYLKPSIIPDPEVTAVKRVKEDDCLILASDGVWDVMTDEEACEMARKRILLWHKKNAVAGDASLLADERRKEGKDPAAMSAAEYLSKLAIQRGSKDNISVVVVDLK
`L28N`: “relative binding score” -8.11%.
`L138Q`: “relative binding score” -7.12%.
`I33E`: “relative binding score” -1.98%.
For `C60M`, “relative binding score” read -13.7%.
For `Q31R`, “relative binding score” read 19.6%.
`L156G`: “relative binding score” -3.81%.
For `T160K`, “relative binding score” read 6.4%.
Under “relative binding score”, `S150M` is recorded as -13.8%.
Under “relative binding score”, `I105S` is recorded as -5.81%.
`L166G` — result for “relative binding score”: 4.44%.
`L93A` — result for “relative binding score”: 14.7%.
`R69L`: “relative binding score” 9.15%.
`V70G` — result for “relative binding score”: -7.02%.
For `E129A`, “relative binding score” read 53.8%.
`T101P`: “relative binding score” -1.8%.
`I12P` — result for “relative binding score”: 1.34%.
`I12W` — result for “relative binding score”: 1.02%.

Study 4 — technique: protein binding microarray; molecule type: double-stranded DNA, one strand shown; sample: in vitro; tested at: not given; baseline: not given; direction: higher = stronger binding
Target: Histone acetyltransferase KAT6A, both winged helices, GST fusion (KAT6A, Homo sapiens, UniProt Q92794, residues 1-181)
Setting: 8-mer, flanks averaged, mean of 2 arrays, mostly near background
Residues (chain): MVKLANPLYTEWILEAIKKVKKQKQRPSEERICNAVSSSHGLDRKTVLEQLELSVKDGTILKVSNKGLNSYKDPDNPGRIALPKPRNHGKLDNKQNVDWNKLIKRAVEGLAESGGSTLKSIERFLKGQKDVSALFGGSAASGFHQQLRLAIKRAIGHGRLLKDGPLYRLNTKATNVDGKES
`CGAATCCG` gave an E-score of 0.219.
`CCCAAGGC` gave an E-score of -0.023.
`AATTGGCA` gave an E-score of -0.135.
The E-score of `CGTACTCA` is reported as 0.00167.
With `CGTCTCCC` the E-score was 0.0943.
`AGCCATAT` has an E-score of -0.17.
`GCTATTTA` has an E-score of 0.0444.
The E-score of `CAGGCGAG` is reported as -0.15.
For `GACGAGAA`, the E-score was -0.0996.
`AGGCCTTA` gave an E-score of -0.0909.
With `GCCTCCGA` the E-score was 0.00751.
With `AGACAGCC` the E-score was -0.06.
`GCCGCGTA` gave an E-score of 0.329.
With `CGAGCAGC` the E-score was 0.0377.
The E-score of `AATTCGAT` is reported as -0.0555.
For `CCCCCTCG`, the E-score was -0.0955.
`CCTAAAAC` has an E-score of -0.00725.
With `CGCAGAGA` the E-score was 0.135.
The E-score of `CATGGTAC` is reported as -0.0645.
With `CCGATTTA` the E-score was 0.109.
With `AGCCATGA` the E-score was -0.11.
The E-score of `ATCTAGCC` is reported as -0.0685.
For `AGGTTCAG`, the E-score was -0.205.
`GACGTTGC` has an E-score of 0.146.
`CGTCCAAC` has an E-score of 0.00504.
